Earlier results that unrelated publications cite.
Compare with care: the assays were run in different laboratories.
Organism: Escherichia coli

Structure (SMILES)	assay	system	conditions	quantity	value
O=C(COc1cccc2ccccc12)Nc1ccccc1[N+](=O)[O-]	–	–	–	MIC	12.5 µg/mL
Cc1cc(C#N)nc(N2CCN(S(=O)(=O)c3ccc(NC(=O)c4cc(CN5CC(CN)C5)ccc4N(C)S(C)(=O)=O)cc3)CC2)n1	–	25922	–	MIC	2 µg/mL
O=c1cc(-c2ccccc2)c2cc(Br)ccc2n1Cc1nnc2n1N=C(c1ccccc1)CS2	–	–	–	MIC	2 µg/mL
N=C(N)c1ccc(-c2ccc(-c3cccs3)s2)cc1	–	–	–	MIC	8 µM
CSCC[C@H](NC(=O)[C@H](CCCNC(=N)N)NC(=O)[C@H](Cc1c[nH]c2ccccc12)NC(=O)[C@H](CCC(N)=O)NC(=O)[C@H](Cc1c[nH]c2ccccc12)NC(=O)[C@H](CCCNC(=N)N)NC(=O)[C@H](CCCNC(=N)N)NC(=O)[C@H](C)NC(=O)[C@H](CCCCN)NC(=O)[C@@H](N)Cc1ccccc1)C(=O)N[C@@H](CCCCN)C(=O)N[C@@H](CCCCN)C(=O)N[C@@H](CC(C)C)C(=O)NCC(=O)N[C@@H](C)C(=O)NCCCC[C@H](NC(=O)[C@H](C)NC(=O)CNC(=O)[C@H](CC(C)C)NC(=O)[C@H](CCCCN)NC(=O)[C@H](CCCCN)NC(=O)[C@H](CCSC)NC(=O)[C@H](CCCNC(=N)N)NC(=O)[C@H](Cc1c[nH]c2ccccc12)NC(=O)[C@H](CCC(N)=O)NC(=O)[C@H](Cc1c[nH]c2ccccc12)NC(=O)[C@H](CCCNC(=N)N)NC(=O)[C@H](CCCNC(=N)N)NC(=O)[C@H](C)NC(=O)[C@H](CCCCN)NC(=O)[C@@H](N)Cc1ccccc1)C(=O)NCCCCCC(N)=O	broth microdilution	ATCC 11775	–	MIC	> 48 µM
COc1ccc(-c2cc(-c3ccc([N+](=O)[O-])cc3)nc(OC)c2C#N)cc1	–	–	–	MIC	0.013 µM
CSCC[C@H](NC(=O)[C@H](CCCNC(=N)N)NC(=O)[C@H](Cc1c[nH]c2ccccc12)NC(=O)[C@H](CCC(N)=O)NC(=O)[C@H](Cc1c[nH]c2ccccc12)NC(=O)[C@H](CCCNC(=N)N)NC(=O)[C@@H](N)CCCNC(=N)N)C(=O)N[C@@H](CCCCN)C(=O)N[C@@H](CCCCN)C(=O)N[C@@H](CC(C)C)C(=O)NCC(=O)NCCCC[C@H](NC(=O)CNC(=O)[C@H](CC(C)C)NC(=O)[C@H](CCCCN)NC(=O)[C@H](CCCCN)NC(=O)[C@H](CCSC)NC(=O)[C@H](CCCNC(=N)N)NC(=O)[C@H](Cc1c[nH]c2ccccc12)NC(=O)[C@H](CCC(N)=O)NC(=O)[C@H](Cc1c[nH]c2ccccc12)NC(=O)[C@H](CCCNC(=N)N)NC(=O)[C@@H](N)CCCNC(=N)N)C(=O)NCCCCCC(N)=O	broth microdilution	ATCC 25922	–	MIC	30 µM
NS(=O)(=O)c1ccc(CCN/C=C2\C(=O)Oc3ccccc3C2=O)cc1	–	–	concentration not given	inhibition zone diameter	10 mm

A few entries again:
Structure (SMILES)	assay	system	conditions	quantity	value
O=C(COc1cccc2ccccc12)Nc1ccccc1[N+](=O)[O-]	–	–	–	MIC	12.5 µg/mL
